Experimental data from different studies.
± marks the error that the study gave.
Matrix: plasma

| SMILES | test system | setting | measurement | result |
| --- | --- | --- | --- | --- |
| Cc1cnc(Nc2cc(C)c(C)c(C)c2)nc1Nc1ccc2oc(=O)[nH]c2c1 | rat | intravenous, 1.0 mg/kg | terminal half-life | 3.9 h |
| CC1(C)C2CCC1(C)C(OC(=O)/C=C/c1ccc(O)c(O)c1)C2 (centres unmarked) | Sprague-Dawley rat | oral gavage, 30 mg/kg | terminal half-life | 3.37 ± 0.24 h |
| CC(C)C[C@@H]1NC(=O)CNC(=O)[C@H](CC(N)=O)NC(=O)[C@H](CCCNC(=N)N)NC(=O)[C@H]([C@@H](C)O)NC(=O)[C@@H]2CSSC[C@@H]3NC(=O)[C@H]([C@@H](C)O)NC(=O)CNC(=O)CNC(=O)[C@H](C(C)C)NC(=O)[C@@H]4CSSC[C@H](NC(=O)[C@H]([C@@H](C)O)NC(=O)[C@H](CSSC[C@H](NC(=O)[C@H](C(C)C)NC(=O)[C@@H]5CCCN5C1=O)C(=O)NCC(=O)N[C@@H](CCC(=O)O)C(=O)N[C@@H]([C@@H](C)O)C(=O)N4)NC(=O)CNC(=O)[C@@H]1CCCN1C(=O)[C@H]([C@@H](C)O)NC(=O)[C@H](CC(N)=O)NC3=O)C(=O)N[C@@H](CO)C(=O)N[C@@H](Cc1c[nH]c3ccccc13)C(=O)N1CCC[C@H]1C(=O)N[C@@H](C(C)C)C(=O)N2 | Sprague Dawley rat, male | intravenous infusion, 1 mg/kg, 10 min infusion | terminal half-life | 1.88 h |
| Cc1cc(O)c2c(c1)C(=O)c1cc(O)cc(O)c1C2=O.Cc1cc(O)c2c(c1)C(=O)c1cc(O)cc(O)c1C2=O.Cc1nc(C)c(C)nc1C | Sprague Dawley rat | oral, 100 mg/kg, alone or as equimolar cocrystal | terminal half-life | 3.7 ± 2.19 h |
| CO[C@@H]1[C@H](OC(=O)N[C@H]2CC[C@H](N)CC2)CC[C@]2(CO2)[C@H]1[C@@]1(C)O[C@@H]1CC=C(C)C | Sprague-Dawley rat, male | intravenous bolus | terminal half-life | 0.167 to 0.25 h |
| COc1cc(NC(C)=O)c2c(c1O)-c1c(OC)c(OC)cc3c1C(C2)N(C)CC3 (centres unmarked) | Wistar rat male | oral, 200 mg/kg | terminal slope | 0.367 ± 0.092 |
| COC(=O)C(CSC1CC(=O)N(CCC(=O)O)C1=O)NC(=O)CCC(NC(=O)c1ccc(NCc2cnc3nc(N)nc(N)c3n2)cc1)C(=O)O (centres unmarked) | female Lewis rats | subcutaneous, 500 nmol/kg of parent drug | terminal half-life | 1 h |
| CNC(=O)N[C@]1(C)CCC[C@@]2(C)C3CC[C@@]4(C)C[C@]3(CCC21)CC4=O (single isomer, unassigned) | Sprague-Dawley rat, male | intravenous, 2 mg/kg | terminal volume of distribution | 1.59 ± 0.45 L |

Repeated from above:
| SMILES | test system | setting | measurement | result |
| --- | --- | --- | --- | --- |
| Cc1cnc(Nc2cc(C)c(C)c(C)c2)nc1Nc1ccc2oc(=O)[nH]c2c1 | rat | intravenous, 1.0 mg/kg | terminal half-life | 3.9 h |
